Measurements collected from several papers.
Parts stem from different laboratories: compare values within a part only. “And” joins repeats or separate records; there may be more than shown.
Chain of UniProt P68400 (whole entry, looked up): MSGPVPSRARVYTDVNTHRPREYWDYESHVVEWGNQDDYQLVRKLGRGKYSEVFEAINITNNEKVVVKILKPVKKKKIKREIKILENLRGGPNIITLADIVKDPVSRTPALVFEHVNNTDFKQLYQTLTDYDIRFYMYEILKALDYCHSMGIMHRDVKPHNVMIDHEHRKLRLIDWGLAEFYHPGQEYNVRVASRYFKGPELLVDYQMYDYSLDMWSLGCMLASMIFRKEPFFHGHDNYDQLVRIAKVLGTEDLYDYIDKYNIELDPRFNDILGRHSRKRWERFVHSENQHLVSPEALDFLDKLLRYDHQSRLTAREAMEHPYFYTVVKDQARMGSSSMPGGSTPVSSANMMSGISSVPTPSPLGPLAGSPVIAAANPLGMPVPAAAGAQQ
Chain of UniProt Q9UKS7 (whole entry, looked up): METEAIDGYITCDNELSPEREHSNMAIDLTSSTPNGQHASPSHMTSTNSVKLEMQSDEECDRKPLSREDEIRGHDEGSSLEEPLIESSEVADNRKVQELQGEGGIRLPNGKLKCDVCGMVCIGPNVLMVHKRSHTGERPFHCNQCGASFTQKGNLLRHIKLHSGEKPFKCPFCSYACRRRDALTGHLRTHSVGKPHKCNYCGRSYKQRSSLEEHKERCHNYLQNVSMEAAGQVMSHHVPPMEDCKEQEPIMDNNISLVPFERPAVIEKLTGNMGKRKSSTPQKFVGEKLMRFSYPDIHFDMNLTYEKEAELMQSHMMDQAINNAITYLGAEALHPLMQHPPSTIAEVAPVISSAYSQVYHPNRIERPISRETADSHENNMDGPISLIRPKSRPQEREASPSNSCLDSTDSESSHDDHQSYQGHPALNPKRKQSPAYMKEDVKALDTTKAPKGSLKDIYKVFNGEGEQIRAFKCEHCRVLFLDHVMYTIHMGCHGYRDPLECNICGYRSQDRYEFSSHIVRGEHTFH
Chain of UniProt Q96SW2 (whole entry, looked up): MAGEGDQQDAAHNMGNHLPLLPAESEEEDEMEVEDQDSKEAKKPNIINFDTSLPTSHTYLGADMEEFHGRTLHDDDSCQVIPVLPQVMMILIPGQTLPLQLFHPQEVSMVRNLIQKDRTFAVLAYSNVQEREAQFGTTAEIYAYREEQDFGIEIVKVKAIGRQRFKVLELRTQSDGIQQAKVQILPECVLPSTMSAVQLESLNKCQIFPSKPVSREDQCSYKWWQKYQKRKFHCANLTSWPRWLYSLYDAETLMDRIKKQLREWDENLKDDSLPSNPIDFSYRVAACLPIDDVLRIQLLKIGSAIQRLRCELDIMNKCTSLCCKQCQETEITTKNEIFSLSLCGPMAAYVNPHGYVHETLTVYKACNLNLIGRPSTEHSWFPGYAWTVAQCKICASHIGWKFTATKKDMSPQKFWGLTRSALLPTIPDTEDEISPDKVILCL

Set 1
Target: Calcium/calmodulin-dependent protein kinase type II subunit alpha (CAMK2A, Homo sapiens, UniProt Q9UQM7)
Chain of UniProt Q9UQM7 (whole entry, looked up): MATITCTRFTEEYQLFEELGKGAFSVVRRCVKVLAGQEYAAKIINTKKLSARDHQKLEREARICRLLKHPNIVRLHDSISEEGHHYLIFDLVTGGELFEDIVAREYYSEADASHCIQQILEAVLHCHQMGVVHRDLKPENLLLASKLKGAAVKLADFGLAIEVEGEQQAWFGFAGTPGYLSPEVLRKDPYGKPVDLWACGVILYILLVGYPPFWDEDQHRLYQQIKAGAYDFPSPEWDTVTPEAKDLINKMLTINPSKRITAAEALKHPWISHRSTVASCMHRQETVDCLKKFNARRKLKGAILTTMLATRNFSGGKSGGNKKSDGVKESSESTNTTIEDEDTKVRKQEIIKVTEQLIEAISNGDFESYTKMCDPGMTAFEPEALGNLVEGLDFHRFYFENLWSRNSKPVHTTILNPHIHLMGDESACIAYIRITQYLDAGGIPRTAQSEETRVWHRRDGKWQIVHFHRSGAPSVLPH
Read-out: enzyme activity
Mode: inhibitor
Concentration: 10 µM
With `CN1Cc2c(ccc3c2OCO3)[C@@H]2[C@H]1c1cc3c(cc1C[C@@H]2O)OCO3` the inhibition was 5%.
`CN1CCc2cc3c(c4c2[C@H]1Cc1ccccc1-4)OCO3` has an inhibition of -40%.
The inhibition of `CC(C)(O)/C=C/C(=O)[C@](C)(O)[C@H]1[C@H](O)C[C@@]2(C)[C@@H]3CC=C4[C@@H](C[C@H](O)C(=O)C4(C)C)[C@]3(C)C(=O)C[C@]12C` is reported as 12%.
The inhibition of `C1=Cc2cccc3cccc1c23` is reported as 37%.
`CC(C)=CC[C@@H](OC(=O)CC(C)(C)O)C1=CC(=O)c2c(O)ccc(O)c2C1=O` has an inhibition of -1%.

Set 2
Target: Eukaryotic initiation factor 4A-III (Homo sapiens, UniProt P38919)
Chain of UniProt P38919 (whole entry, looked up): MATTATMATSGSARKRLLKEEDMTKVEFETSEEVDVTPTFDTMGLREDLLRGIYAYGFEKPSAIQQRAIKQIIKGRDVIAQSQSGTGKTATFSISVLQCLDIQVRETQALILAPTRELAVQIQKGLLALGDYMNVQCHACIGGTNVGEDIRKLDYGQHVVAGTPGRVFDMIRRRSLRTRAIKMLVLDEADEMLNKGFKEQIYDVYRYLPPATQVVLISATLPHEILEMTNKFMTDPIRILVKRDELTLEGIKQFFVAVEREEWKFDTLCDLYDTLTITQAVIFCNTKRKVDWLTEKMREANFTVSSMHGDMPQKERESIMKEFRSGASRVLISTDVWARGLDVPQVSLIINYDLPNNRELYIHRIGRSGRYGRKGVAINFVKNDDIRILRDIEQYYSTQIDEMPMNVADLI
Read-out: RNA clamping
Technique: fluorescence polarization
Concentration: concentration not given
Together with: FAM-labelled poly r(AG)8 RNA
`COc1ccc([C@@]23Oc4cc(OC)cc(OC)c4[C@@]24NC(C2CC2)=N[C@@]4(O)[C@H](C(=O)N(C)OC)[C@H]3c2ccccc2)cc1`: “fluorescence polarization change” 39.9 mP.
`CCOC(=O)[C@H]1[C@@H](c2ccccc2)[C@]2(c3ccc(Br)cc3)Nc3cc(OC)cc(OC)c3[C@@]1(O)[C@H]2O`: “fluorescence polarization change” 6.4 mP.
Under “fluorescence polarization change”, `COC(=O)Cc1nc2c(c(=O)[nH]1)[C@@H](c1ccccc1)[C@]1(c3ccc(OC)cc3)Oc3cc(OC)cc(OC)c3[C@]21O` is recorded as 19.3 mP.
`COc1ccc([C@@]23Oc4cc(OC)cc(OC)c4[C@]2(O)c2nc(-c4ccccc4)n(C)c(=O)c2[C@H]3c2ccccc2)cc1` — result for “fluorescence polarization change”: 17.9 mP.
For `C#CCOc1nc(-c2ccccc2)nc2c1[C@@H](c1ccccc1)[C@]1(c3ccc(OC)cc3)Oc3cc(OC)cc(OC)c3[C@]21OCC#C`, “fluorescence polarization change” read 11.5 mP.
`CONC(=O)[C@H]1[C@@H](O)[C@@]2(O)c3c(OC)cc(OC)cc3O[C@@]2(c2ccc(OC)cc2)[C@@H]1c1ccccc1` — result for “fluorescence polarization change”: 44.5 mP and 51.8 mP and 35.3 mP.
For `COc1ccc([C@@]23Oc4cc(OC)cc(OC)c4[C@]2(O)c2nc(-c4ccc(N(C)C)cc4)[nH]c(=O)c2[C@H]3c2ccccc2)cc1`, “fluorescence polarization change” read 12.2 mP.
`COc1ccc([C@@]23Oc4cc(OC)cc(OC)c4[C@]2(O)c2nc(-c4ccc(Br)cc4)[nH]c(=O)c2[C@H]3c2ccccc2)cc1` — result for “fluorescence polarization change”: 3.5 mP.
`COCC1=N[C@@]2(O)[C@H](C(=O)OC)[C@@H](c3ccccc3)[C@]3(c4ccc(OC)cc4)Oc4cc(OC)cc(OC)c4[C@]23N1`: “fluorescence polarization change” 21.2 mP and 33.2 mP.
For `COc1ccc([C@@]23Oc4cc(OC)cc(OC)c4[C@]2(O)c2nc(-c4ccncc4)[nH]c(=O)c2[C@H]3c2ccccc2)cc1`, “fluorescence polarization change” read 18.5 mP.
Under “fluorescence polarization change”, `COc1ccc([C@@]23Oc4cc(OC)cc(OC)c4[C@]2(O)c2nc(-c4cnccn4)[nH]c(=O)c2[C@H]3c2ccccc2)cc1` is recorded as 22.3 mP.
`COCC1=N[C@@]2(O)[C@H](C(=O)N(C)OC)[C@@H](c3ccccc3)[C@]3(c4ccc(OC)cc4)Oc4cc(OC)cc(OC)c4[C@]23N1`: “fluorescence polarization change” 26.4 mP.
Under “fluorescence polarization change”, `COC(=O)[C@@H]1[C@@H](c2ccccc2)[C@]2(c3ccc(OC)cc3)Oc3cc(OC)cc(OC)c3[C@@]23N=C(C2CC2)N[C@@]13O` is recorded as 27 mP and 70.8 mP.
Under “fluorescence polarization change”, `COc1ccc([C@@]23Oc4cc(OC)cc(OC)c4[C@]2(O)c2nc(-c4ccc(F)cc4)[nH]c(=O)c2[C@H]3c2ccccc2)cc1` is recorded as 5.1 mP.
`COc1ccc([C@@]23Oc4cc(OC)cc(OC)c4[C@]2(O)[C@H](O)[C@H](C(=O)O)[C@H]3c2ccccc2)cc1`: “fluorescence polarization change” 34.9 mP and 16.2 mP.
`CCOc1ccccc1-c1nc2c(c(=O)[nH]1)[C@@H](c1ccccc1)[C@]1(c3ccc(OC)cc3)Oc3cc(OC)cc(OC)c3[C@]21O` — result for “fluorescence polarization change”: 42.7 mP.
`COc1ccc([C@@]23Oc4cc(OC)cc(OC)c4[C@]2(O)c2nc(-c4cccc(C)c4)[nH]c(=O)c2[C@H]3c2ccccc2)cc1` — result for “fluorescence polarization change”: 12.3 mP.
Under “fluorescence polarization change”, `COc1ccc([C@@]23Oc4cc(OC)cc(OC)c4[C@@]24NC(C)=N[C@@]4(O)[C@H](C(=O)N(C)C)[C@H]3c2ccccc2)cc1` is recorded as 54.3 mP.

Set 3
Organism: Sarcocystis neurona
Read-out: parasite growth
Concentration: 10 µM
Time: 96 h
Setting: first screen
Baseline: untreated
For `C[C@H]1CCC[C@H](O)CCCCCc2cc(O)cc(O)c2C(=O)O1`, “log2 fold change” read -0.57.
Under “log2 fold change”, `c1ccc(Cn2ccnc2)cc1` is recorded as 0.00249.
For `Oc1cc(Cl)ccc1Oc1ccc(Cl)cc1Cl`, “log2 fold change” read -0.25.
For `CN1CCN(CC/C=C2/c3ccccc3Sc3ccc(S(=O)(=O)N(C)C)cc32)CC1`, “log2 fold change” read -2.87.
For `O=c1c(-c2ccccc2)c1-c1ccccc1`, “log2 fold change” read -0.61.

Set 4
Cell line: mouse MPNST tumor cells
Technique: high-content nuclear imaging
Item: cell number
Concentration: 10 µM
Time: 12 h
Setting: mean of 2 replicates
Baseline: plate mean
Direction: higher = more cells
With `C[C@@H]1C[C@@H]([C@H](O)CC2CC(=O)NC(=O)C2)C(=O)[C@@H](C)C1` the nuclei count was -3.85 z-score.
`CN(C)CCN(C)CCc1ccc(Cl)c(Cl)c1` gave a nuclei count of 0.84 z-score.
The nuclei count of `Nc1ncnc2c1ccn2[C@@H]1O[C@H]([C@H](O)c2ccccc2)[C@@H](O)[C@H]1O` is reported as 2.77 z-score.
`NCC(CC(=O)O)c1ccc(Cl)cc1` (racemic) has a nuclei count of 0.363 z-score.
`C[C@]12CC[C@H](O)C[C@H]1CC[C@@H]1[C@@H]2C[C@@H](O)[C@]2(C)[C@@H](C3=CC(=O)OC3)CC[C@]12O` gave a nuclei count of 0.976 z-score.

Other studies, line by line
CRK2: Cyclin-dependent kinase 2 homolog (CRK2, Plasmodium falciparum, UniProt P61075)
Chain of UniProt P61075 (whole entry, looked up): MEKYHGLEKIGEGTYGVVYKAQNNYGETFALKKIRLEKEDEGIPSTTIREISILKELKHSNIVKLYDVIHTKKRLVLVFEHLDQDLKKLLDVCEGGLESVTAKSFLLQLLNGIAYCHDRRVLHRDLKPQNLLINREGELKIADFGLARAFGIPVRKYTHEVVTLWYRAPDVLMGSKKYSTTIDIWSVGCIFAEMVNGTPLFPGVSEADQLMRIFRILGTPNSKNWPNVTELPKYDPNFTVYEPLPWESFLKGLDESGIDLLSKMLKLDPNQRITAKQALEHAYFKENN
CDPK1: Calcium-dependent protein kinase 1 (CDPK1, Plasmodium falciparum, UniProt P62344)
Chain of UniProt P62344 (whole entry, looked up): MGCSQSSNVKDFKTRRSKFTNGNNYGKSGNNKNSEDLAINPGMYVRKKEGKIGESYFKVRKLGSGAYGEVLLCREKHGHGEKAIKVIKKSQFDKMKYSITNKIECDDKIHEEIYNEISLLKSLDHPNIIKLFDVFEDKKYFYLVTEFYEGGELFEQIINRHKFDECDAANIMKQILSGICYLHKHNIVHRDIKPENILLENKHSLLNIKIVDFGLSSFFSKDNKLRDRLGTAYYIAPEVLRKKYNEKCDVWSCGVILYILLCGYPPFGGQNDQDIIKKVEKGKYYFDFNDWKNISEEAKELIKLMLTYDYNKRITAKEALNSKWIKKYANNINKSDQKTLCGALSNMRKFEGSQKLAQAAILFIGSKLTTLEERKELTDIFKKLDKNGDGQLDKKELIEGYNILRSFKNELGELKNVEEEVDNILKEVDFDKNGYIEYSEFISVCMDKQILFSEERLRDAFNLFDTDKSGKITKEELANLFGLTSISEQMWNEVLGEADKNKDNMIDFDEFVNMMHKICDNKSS
For `NS(=O)(=O)c1cc(NC(=O)Cc2ccccc2)ccc1Oc1cccc(Cl)c1`, the remaining binding was 100% (CRK2; cell-free assay, competition with immobilised ligand; 1 µM).
The protein remaining of `O=C1CCC(N2Cc3c(ccc4c3OCC43CCN(Cc4ccccc4)CC3(F)F)C2=O)C(=O)N1` (stereo not shown) is reported as 90.2% (CRBN/Zinc finger protein Helios (Homo sapiens, UniProt Q96SW2+Q9UKS7); degrader, HiBiT; HEK293; 13.72 nM).
`Cc1nc(Cc2cccc(C(F)(F)F)c2)sc1-c1ccc(C(N)=O)nc1` gave a remaining binding of 100% (CDPK1; cell-free assay, competition with immobilised ligand; 1 µM).
`CN[C@@H]1C[C@H]2O[C@@](C)([C@@H]1OC)n1c3ccccc3c3c4c(c5c6ccccc6n2c5c31)C(=O)NC4`: “activity vs control” 87.9% (Casein kinase II subunit alpha (CSNK2A1, Homo sapiens, UniProt P68400); enzyme activity, inhibitor; 0.5 µM).
`C[C@@H](c1cccc(C#N)c1)n1cc(Cl)cc(C(N)=O)c1=N` has a remaining binding of 78% (CDPK1; cell-free assay, competition with immobilised ligand; 1 µM).
`C[C@@H]1C[C@H](C)C[C@H](C)[C@@H](O)CC(=O)O[C@H]([C@@H]2CCC[C@H]2C(=O)O)C/C=C/C=C(/C#N)[C@H](O)[C@@H](C)C1` gave an inhibition of 12.6% (Bromodomain-containing protein 4, BD1 (BRD4, Homo sapiens, UniProt O60885); 50 µM).
`Cc1nccc(COC(=O)N2C[C@@H]3[C@@H](CNC(=O)c4ccc5[nH]nnc5c4)[C@@H]3C2)n1` gave a remaining binding of 85% (CRK2; cell-free assay, competition with immobilised ligand; 1 µM).

A few entries again (set 1):
With `CN1Cc2c(ccc3c2OCO3)[C@@H]2[C@H]1c1cc3c(cc1C[C@@H]2O)OCO3` the inhibition was 5%.
The inhibition of `CC(C)(O)/C=C/C(=O)[C@](C)(O)[C@H]1[C@H](O)C[C@@]2(C)[C@@H]3CC=C4[C@@H](C[C@H](O)C(=O)C4(C)C)[C@]3(C)C(=O)C[C@]12C` is reported as 12%.
`CC(C)=CC[C@@H](OC(=O)CC(C)(C)O)C1=CC(=O)c2c(O)ccc(O)c2C1=O` has an inhibition of -1%.
`CN1CCc2cc3c(c4c2[C@H]1Cc1ccccc1-4)OCO3` has an inhibition of -40%.
The inhibition of `C1=Cc2cccc3cccc1c23` is reported as 37%.
